Published values from different studies.
Lines come from different studies, so protocols differ. ± marks the error that the study gave.
VKORC1: Vitamin K epoxide reductase complex subunit 1 (VKORC1, Homo sapiens, UniProt Q9BQB6)
Chain of UniProt Q9BQB6 (whole entry, looked up): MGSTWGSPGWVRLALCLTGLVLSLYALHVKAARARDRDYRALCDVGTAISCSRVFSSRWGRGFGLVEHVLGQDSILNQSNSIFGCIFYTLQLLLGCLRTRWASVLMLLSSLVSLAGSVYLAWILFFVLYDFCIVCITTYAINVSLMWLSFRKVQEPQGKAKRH
Gria2: Glutamate receptor 2 (Gria2, Rattus norvegicus, UniProt P19491)
Chain of UniProt P19491 (whole entry, looked up): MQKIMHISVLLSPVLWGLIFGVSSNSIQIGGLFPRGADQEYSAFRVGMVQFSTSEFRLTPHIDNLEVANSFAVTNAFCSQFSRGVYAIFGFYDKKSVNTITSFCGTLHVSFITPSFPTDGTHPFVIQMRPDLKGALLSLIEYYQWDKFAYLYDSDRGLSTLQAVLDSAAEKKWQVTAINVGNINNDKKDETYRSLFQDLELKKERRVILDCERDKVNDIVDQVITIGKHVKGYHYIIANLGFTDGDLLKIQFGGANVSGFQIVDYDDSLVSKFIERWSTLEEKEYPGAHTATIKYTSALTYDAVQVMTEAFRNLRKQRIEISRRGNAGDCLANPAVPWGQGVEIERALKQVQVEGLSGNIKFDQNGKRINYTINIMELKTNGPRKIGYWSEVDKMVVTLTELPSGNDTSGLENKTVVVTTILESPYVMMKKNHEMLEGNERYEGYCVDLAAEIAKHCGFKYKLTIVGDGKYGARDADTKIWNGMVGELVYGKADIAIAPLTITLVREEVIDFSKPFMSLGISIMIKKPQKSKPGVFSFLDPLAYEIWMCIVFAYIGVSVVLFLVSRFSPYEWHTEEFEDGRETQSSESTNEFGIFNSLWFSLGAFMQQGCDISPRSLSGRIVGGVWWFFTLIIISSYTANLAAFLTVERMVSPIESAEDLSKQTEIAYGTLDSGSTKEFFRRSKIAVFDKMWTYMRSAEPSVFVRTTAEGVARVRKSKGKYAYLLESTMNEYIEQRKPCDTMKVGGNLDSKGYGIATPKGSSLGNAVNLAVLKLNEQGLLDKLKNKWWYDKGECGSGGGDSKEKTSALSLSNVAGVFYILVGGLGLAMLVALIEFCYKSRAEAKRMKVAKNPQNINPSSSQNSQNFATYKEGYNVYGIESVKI
HDAC11: Histone deacetylase 11 (HDAC11, Homo sapiens, UniProt Q96DB2)
Chain of UniProt Q96DB2 (whole entry, looked up): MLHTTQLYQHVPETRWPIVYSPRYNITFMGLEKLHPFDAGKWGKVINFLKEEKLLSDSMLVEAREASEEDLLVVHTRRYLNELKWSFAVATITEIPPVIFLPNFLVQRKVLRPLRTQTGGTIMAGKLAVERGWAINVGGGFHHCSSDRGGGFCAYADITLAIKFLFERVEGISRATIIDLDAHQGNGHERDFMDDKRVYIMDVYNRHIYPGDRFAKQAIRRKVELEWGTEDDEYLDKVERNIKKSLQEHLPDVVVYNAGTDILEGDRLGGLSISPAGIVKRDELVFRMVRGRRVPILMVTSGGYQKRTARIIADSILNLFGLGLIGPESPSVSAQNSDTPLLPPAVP
CDK4: Cyclin-dependent kinase 4 (CDK4, Homo sapiens, UniProt P11802)
Chain of UniProt P11802 (whole entry, looked up): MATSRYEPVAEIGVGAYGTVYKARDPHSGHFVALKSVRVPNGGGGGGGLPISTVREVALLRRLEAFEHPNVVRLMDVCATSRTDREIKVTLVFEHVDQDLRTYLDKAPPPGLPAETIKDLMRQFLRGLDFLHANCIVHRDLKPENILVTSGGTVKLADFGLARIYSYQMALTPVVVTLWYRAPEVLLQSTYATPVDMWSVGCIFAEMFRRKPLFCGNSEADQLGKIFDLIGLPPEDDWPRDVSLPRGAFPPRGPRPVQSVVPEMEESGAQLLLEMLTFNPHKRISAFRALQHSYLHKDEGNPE
DDR2: Discoidin domain-containing receptor 2 (DDR2, Homo sapiens, UniProt Q16832)
Chain of UniProt Q16832 (whole entry, looked up): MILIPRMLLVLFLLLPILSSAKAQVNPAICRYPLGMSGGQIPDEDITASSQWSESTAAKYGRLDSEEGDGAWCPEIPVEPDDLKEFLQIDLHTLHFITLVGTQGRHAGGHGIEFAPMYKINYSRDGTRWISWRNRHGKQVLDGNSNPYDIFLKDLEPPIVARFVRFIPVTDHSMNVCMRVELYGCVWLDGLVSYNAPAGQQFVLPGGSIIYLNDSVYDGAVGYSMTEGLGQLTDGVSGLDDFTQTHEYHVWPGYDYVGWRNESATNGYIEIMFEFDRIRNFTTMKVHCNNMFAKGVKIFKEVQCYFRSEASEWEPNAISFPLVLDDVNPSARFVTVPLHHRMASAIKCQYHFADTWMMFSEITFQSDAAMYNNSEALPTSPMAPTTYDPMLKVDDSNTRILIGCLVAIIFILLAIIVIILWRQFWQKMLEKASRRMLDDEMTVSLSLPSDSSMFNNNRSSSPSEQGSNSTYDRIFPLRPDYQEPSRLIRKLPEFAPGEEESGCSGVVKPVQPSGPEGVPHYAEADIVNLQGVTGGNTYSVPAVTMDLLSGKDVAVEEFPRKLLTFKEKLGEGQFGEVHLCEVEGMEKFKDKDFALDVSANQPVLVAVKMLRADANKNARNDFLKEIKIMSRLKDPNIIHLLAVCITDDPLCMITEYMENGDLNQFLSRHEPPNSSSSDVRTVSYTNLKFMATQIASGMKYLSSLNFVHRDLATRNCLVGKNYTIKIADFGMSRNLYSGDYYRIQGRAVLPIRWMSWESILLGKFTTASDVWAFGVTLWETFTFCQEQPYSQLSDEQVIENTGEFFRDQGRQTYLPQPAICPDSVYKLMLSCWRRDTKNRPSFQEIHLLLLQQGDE
MAOA: Amine oxidase [flavin-containing] A (MAOA, Homo sapiens, UniProt P21397)
Chain of UniProt P21397 (whole entry, looked up): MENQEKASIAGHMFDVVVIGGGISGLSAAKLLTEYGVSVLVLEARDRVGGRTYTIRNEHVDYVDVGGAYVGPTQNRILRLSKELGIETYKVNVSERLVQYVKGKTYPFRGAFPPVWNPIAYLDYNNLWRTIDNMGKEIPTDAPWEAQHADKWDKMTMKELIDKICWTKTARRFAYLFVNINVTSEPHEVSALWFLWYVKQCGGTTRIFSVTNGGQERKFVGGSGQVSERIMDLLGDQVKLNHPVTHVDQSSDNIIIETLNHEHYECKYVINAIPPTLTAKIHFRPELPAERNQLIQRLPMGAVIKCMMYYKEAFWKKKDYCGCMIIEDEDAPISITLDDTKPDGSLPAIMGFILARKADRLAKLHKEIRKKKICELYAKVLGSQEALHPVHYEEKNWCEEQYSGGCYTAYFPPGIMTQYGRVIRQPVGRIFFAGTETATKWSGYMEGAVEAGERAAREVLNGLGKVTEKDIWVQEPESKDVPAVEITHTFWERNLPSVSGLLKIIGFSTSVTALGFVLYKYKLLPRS
MARS2: Methionine--tRNA ligase, mitochondrial (MARS2, Homo sapiens, UniProt Q96GW9)
Chain of UniProt Q96GW9 (whole entry, looked up): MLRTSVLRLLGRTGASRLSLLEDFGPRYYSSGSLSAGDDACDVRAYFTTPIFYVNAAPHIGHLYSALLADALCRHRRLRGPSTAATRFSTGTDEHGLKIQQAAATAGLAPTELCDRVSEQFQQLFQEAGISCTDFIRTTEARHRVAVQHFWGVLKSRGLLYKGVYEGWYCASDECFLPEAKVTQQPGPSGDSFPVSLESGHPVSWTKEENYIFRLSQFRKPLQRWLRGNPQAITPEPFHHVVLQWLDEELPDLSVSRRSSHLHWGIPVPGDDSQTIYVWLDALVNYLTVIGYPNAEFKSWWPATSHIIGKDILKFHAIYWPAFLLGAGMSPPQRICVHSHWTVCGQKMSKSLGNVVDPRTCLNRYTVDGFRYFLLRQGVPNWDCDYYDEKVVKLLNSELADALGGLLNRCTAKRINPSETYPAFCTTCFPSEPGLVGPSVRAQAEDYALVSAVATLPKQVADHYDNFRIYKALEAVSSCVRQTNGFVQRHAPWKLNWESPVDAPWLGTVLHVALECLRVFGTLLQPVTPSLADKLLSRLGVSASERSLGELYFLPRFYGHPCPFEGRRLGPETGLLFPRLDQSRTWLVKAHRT
Mc1r: Melanocyte-stimulating hormone receptor (Mc1r, Mus musculus, UniProt Q01727)
Chain of UniProt Q01727 (whole entry, looked up): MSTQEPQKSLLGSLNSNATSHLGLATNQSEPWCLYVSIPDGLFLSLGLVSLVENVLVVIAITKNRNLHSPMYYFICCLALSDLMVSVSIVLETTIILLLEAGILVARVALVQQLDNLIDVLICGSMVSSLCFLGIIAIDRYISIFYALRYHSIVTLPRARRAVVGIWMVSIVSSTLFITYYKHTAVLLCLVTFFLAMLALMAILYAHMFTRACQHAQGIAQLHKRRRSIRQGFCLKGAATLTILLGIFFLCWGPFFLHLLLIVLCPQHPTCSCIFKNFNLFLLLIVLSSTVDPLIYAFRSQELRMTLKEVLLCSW
Chain of UniProt P22455 (whole entry, looked up): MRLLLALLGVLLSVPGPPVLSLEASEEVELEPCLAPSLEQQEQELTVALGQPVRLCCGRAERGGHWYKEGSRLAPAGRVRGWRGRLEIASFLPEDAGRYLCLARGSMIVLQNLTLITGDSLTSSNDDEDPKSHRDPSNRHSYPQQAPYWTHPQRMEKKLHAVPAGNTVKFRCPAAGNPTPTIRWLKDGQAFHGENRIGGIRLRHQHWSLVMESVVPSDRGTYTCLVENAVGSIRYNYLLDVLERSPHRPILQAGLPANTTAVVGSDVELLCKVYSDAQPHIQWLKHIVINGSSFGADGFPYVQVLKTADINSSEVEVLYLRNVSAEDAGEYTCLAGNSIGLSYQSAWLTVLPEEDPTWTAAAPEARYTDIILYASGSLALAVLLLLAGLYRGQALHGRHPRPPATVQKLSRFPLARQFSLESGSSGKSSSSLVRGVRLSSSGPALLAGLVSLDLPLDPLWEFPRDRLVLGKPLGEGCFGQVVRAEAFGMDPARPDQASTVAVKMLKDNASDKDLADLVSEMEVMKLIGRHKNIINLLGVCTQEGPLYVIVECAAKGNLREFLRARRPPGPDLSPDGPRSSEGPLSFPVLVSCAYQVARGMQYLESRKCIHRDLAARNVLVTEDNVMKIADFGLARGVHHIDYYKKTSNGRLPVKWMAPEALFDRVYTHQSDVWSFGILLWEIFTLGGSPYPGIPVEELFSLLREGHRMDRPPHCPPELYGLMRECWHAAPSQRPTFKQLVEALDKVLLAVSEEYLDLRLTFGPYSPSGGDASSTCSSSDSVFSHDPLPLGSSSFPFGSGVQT
Chain of UniProt Q9Y6W8 (whole entry, looked up): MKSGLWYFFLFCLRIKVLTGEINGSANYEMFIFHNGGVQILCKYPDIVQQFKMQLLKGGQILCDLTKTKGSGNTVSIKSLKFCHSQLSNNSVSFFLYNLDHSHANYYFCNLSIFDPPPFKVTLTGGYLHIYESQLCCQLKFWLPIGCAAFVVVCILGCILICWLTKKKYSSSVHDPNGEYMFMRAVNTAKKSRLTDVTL

| Structure (SMILES) | target | test | system | conditions | how to read | IC50 |
| --- | --- | --- | --- | --- | --- | --- |
| C=C(F)C(=O)Nc1ccc2c(-c3ccccc3CNc3nc(NC[C@H]4CCNC[C@@H]4O)nc4c(C(C)C)cnn34)nccc2c1 | CDK7 (Homo sapiens, UniProt P50613) | kinase activity, inhibitor, radiometric |  |  |  | 10 nM |
| CC(C(=O)N1CCCC1c1cc2nc3c(c(O)n2n1)CCCC3)n1cncn1 (stereo not drawn) | VKORC1 | carboxylation, inhibitor, ELISA | HEK293 stably expressing | 24 h, together with: vitamin K epoxide 5 µM |  | 19300 nM |
| O=C(O)Cc1cc2c(cc1C(=O)c1ccccc1Cl)OCO2 | Gria2 | glutamate-evoked current, inhibitor, whole-cell patch clamp | HEK293T, homomeric receptor |  |  | 4070 nM |
| Cc1ccc(C[C@H]2CON=C(c3cc(C)nnc3Oc3cccc(Cl)c3F)N2)c(Cl)c1 | serine palmitoyltransferase (Botrytis cinerea, UniProt A0A384JAG3+A0A384JQT2) |  |  |  |  | 3 ± 1 nM |
| CCOc1cc(CN2CC3(CC(N4CCC(C(=O)O)CC4)=NO3)C2)cc(OCC)c1-c1ccc(F)cc1 | SSTR5 (Homo sapiens, UniProt P35346, M116A) | cAMP level, antagonist, GloSensor | AD293 | M116A mutant, bandwidth 3.29, together with: CST17 EC80 and forskolin |  | 2570 nM |
| CN1CCc2cc(Br)c(O)cc2C(c2ccc(NC(=O)CCOCCOCCOCCn3cc(COCCOCCOCCOCCC(=O)NCCc4c[nH]cn4)nn3)cc2)C1 (stereo not drawn) | DRD1 (Homo sapiens, UniProt P21728) | cell-based |  |  |  | 123 nM |
| C=CC[C@@H]1NC(=O)CCSCc2ccc(cc2)CSCCCNC(=O)[C@H](CCCCCC(=O)N(O)CCCCCC)NC1=O | HDAC11 | enzyme activity, inhibitor, fluorescence |  |  |  | 560 nM |
| CC(C)(COP(=O)(O)OP(=O)(O)OC[C@H]1O[C@@H](n2cnc3c(N)ncnc32)[C@H](O)[C@@H]1OP(=O)(O)O)[C@@H](O)C(=O)NCCC(=O)NCCSCC(=O)N[C@@H](CO)C(=O)NCC(=O)N[C@@H](CCCNC(=N)N)C(=O)NCC(=O)N[C@@H](CCCCN)C(=O)NCCCC[C@H](NC(=O)CC[C@@H]1NC(=O)[C@@H](CCCNC(=N)N)NC(=O)[C@H](CCCNC(=N)N)NC(=O)[C@@H](CCCNC(=N)N)NC(=O)[C@H](CCCNC(=N)N)NC(=O)[C@H](Cc2csc3ccccc23)NC(=O)[C@@H](Cc2ccccc2)NC(=O)[C@H](Cc2ccccc2)NC1=O)C(N)=O | NAA40 (Homo sapiens, UniProt Q86UY6) | enzyme activity, inhibitor, fluorescence |  |  |  | 78 nM |
| CC(C)c1ccc(OS(=O)(=O)Oc2cncc(C(=O)NO)c2)cc1 | HDAC11 |  |  |  |  | 3760 nM |
| COC(=O)CCCCC(=O)Nc1ccc(Nc2ncc(F)c(-c3cc(F)c4nc(C)n(C(C)C)c4c3)n2)cc1 | CDK4 |  |  |  |  | 1.5 nM |
| Cc1ccc(N=C2CC(=O)c3sc(C)nc3C2=O)cc1 | PRMT1 (Homo sapiens, UniProt Q99873) | enzyme activity, inhibitor |  |  |  | > 100000 nM |
| C[C@H]1CN(c2cc(=O)n(C)c3ccc(C#N)nc23)[C@@H](C)CN1Cc1ccc(S(=O)(=O)n2cnc(C3CC3)n2)cc1 | DGKA (Homo sapiens, UniProt P23743) | inhibitor, ADP-Glo |  | together with: DAG micelles |  | 2320 nM |
| Cc1nc2c(F)cc(-c3nc(Nc4ccc(C(=O)NCCCC(=O)NO)cc4)ncc3F)cc2n1C(C)C | CDK4 |  |  |  |  | 11 nM |
| Cc1ccc(-c2nn(-c3ccc(S(C)(=O)=O)cc3)cc2/C=N/N=C2/NC(=O)CS2)cc1 | EGFR (Homo sapiens, UniProt P00533, L858R/T790M) | enzyme activity, inhibitor |  |  |  | 51 nM |
| CNC(=O)c1ccc(-c2cc(Cl)cc(Cl)c2Cl)c(N)n1 | SCN9A (Homo sapiens, UniProt Q15858) | ion current, inhibitor, patch clamp |  |  |  | 24900 nM |
| O=C(O)Cc1cc2c(cc1C(=O)c1cccc(Br)c1)OCO2 | Gria2 | glutamate-evoked current, inhibitor, whole-cell patch clamp | HEK293T, homomeric receptor |  |  | 4270 nM |
| O=C(O)CCNC(=S)NCCCC[C@H](NS(=O)(=O)c1cccc(F)c1)C(=O)N[C@@H](Cc1c[nH]c2ccccc12)C(=O)NC1CCC1 | SIRT5 (Homo sapiens, UniProt Q9NXA8) | inhibitor, fluorogenic |  | pre-incubation 16 h, together with: NAD+ 500 µM |  | 104 ± 3 nM |
| O=C(CN1CN(c2cccc(Cl)c2)C2(CCN(C(=O)c3cnc4[nH]ncc4c3)CC2)C1=O)NCC(F)(F)F | DDR2 | ligand displacement |  |  |  | 2390 nM |
| CCCCCCN(O)C(=O)CCCCC[C@@H]1NC(=O)[C@H]([C@@H](C)CC)NC(=O)[C@H](Cc2ccccc2C(F)(F)F)NC(=O)CCSCc2cccc(n2)CSCCCNC1=O | HDAC11 | enzyme activity, inhibitor, fluorescence |  |  |  | 73 nM |
| CC(C)c1ccc(/C=C/C(=O)c2cccc(C(F)(F)F)c2)cc1 | MAOA | enzyme activity, inhibitor |  |  |  | > 40000 nM |
| COC(=O)CCCCCCC(=O)Nc1ccc(Nc2ncc(F)c(-c3cc(F)c4nc(C)n(C(C)C)c4c3)n2)cn1 | CDK4 |  |  |  |  | 2.8 nM |
| Clc1cc(Cl)c2c(c1)[C@H](NCCCNc1nc3ncccc3[nH]1)CCN2 | MARS2 | enzyme activity, inhibitor |  |  |  | < 13 nM |
| CCn1nc(Cl)c2c1-c1cnc(N)c(c1)O[C@H](C)c1cc(F)ccc1-c1nn(C)cc1C2 | EPHA1 (Homo sapiens, UniProt P21709) | enzyme activity, inhibitor, radiometric |  |  |  | 640 nM |

| Structure (SMILES) | target | test | system | conditions | how to read | IC50 |
| --- | --- | --- | --- | --- | --- | --- |
| CC(C)c1ccc(/C=C/C(=O)c2c[nH]c3ccccc23)cc1 | MAOA | enzyme activity, inhibitor |  |  |  | 5820 nM |
| Fc1ccc2nc(NCCCN[C@@H]3CCNc4c(Cl)cc(Cl)cc43)[nH]c2n1 | MARS2 | enzyme activity, inhibitor |  |  |  | < 13 nM |
| CNC(=O)CN1CN(c2ccccc2)C2(CCN(C(=O)c3cnc4[nH]ccc4c3)CC2)C1=O | DDR2 | ligand displacement |  |  |  | > 167000 nM |
| COc1ccc(-c2cc(OCC(=O)N(C)Cc3cccnc3C)nc(-n3nc(C)cc3C)n2)cc1 | LNPEP (Homo sapiens, UniProt Q9UIQ6) | inhibitor, HPLC |  | first phase of biphasic curve | partial inhibition | 100 nM |
| Cc1cc(NC2CCN(C)CC2)ccc1-c1cc2c(N3CCC[C@H](C(=O)NCc4ccc(OC(F)(F)F)cc4)C3)ncnc2[nH]1 | PDPK1 (Homo sapiens, UniProt O15530) | enzyme activity, inhibitor, mobility shift |  |  |  | > 8000 nM |
| Cc1nc2c(F)cc(-c3nc(Nc4cccc(NC(=O)CCCCCCC(=O)NO)c4)ncc3F)cc2n1C(C)C | CDK4 |  |  |  |  | 2.3 nM |
| O=C1Nc2c(Br)cccc2/C1=C1/Nc2ccccc2C1=NO | EPHA4 (Homo sapiens, UniProt P54764) |  |  |  |  | > 10000 nM |
| CCN(CC)CC(=O)Nc1cccc(-n2cc(-c3ccc4ccc(-c5cn(-c6cccc(NC(=O)CN(CC)CC)c6)nn5)cc4c3)nn2)c1 | FGFR4 (Homo sapiens, UniProt P22455) | enzyme activity, inhibitor |  |  |  | > 10000 nM |
| CC1CN(C(=O)Cn2ncc3cccn3c2=O)CC(C)O1 (stereo not drawn) | VKORC1 | carboxylation, inhibitor, cell-based |  |  |  | 5500 nM |
| NC(=O)c1cccc(NC(=O)c2cc(-c3ccccc3)n(-c3ccccc3)n2)c1 | Genome polyprotein, NS2B-NS3 protease (dengue virus type 2, UniProt P29990) | enzyme activity |  | together with: AMC substrate 50 µM |  | > 50000 nM |
| CCCC[C@H](NC(=O)CNC(=O)CNC(=O)[C@H](CCCCNC(=O)[C@H](CC(=O)O)NC(=O)C(C)c1ccc(CC(C)C)cc1)NC(=O)CN1CCN(CC(=O)O)CCN(CC(=O)O)CCN(CC(=O)O)CC1)C(=O)N[C@H]1CC(=O)NCCCC[C@@H](C(N)=O)NC(=O)[C@H](Cc2c[nH]c3ccccc23)NC(=O)[C@H](CCCNC(=N)N)NC(=O)[C@@H](Cc2ccccc2)NC(=O)[C@H](Cc2c[nH]cn2)NC1=O (stereo partly drawn) | Mc1r | radioligand binding, competitor | B16-F10 mouse melanoma | 2 h, 25 °C, together with: radiolabelled NDP-MSH |  | 1.52 ± 0.08 nM |
| Cc1nc2c(F)cc(-c3nc(Nc4ccc(CC(=O)NCCCCCCCC(=O)NO)cc4)ncc3F)cc2n1C(C)C | CDK4 |  |  |  |  | 1.7 nM |
| O=S(=O)(O)c1cc(O)c2ccc(Nc3ccc4c(O)cc(S(=O)(=O)O)cc4c3)cc2c1 | Trex1 (Mus musculus, UniProt Q91XB0) | enzyme activity, inhibitor |  |  |  | 3800 nM |
| Cc1nc2c(F)cc(-c3nc(Nc4ccc(CC(=O)NCCCCCC(=O)NO)cc4)ncc3F)cc2n1C(C)C | CDK4 |  |  |  |  | 1.1 nM |
| CCCC[C@H](NC(=O)[C@@H]1CCCN1C(=O)[C@H](CCCNC(=N)N)NC(=O)[C@H](CS)NC(=O)[C@H](Cc1c[nH]c2ccccc12)NC(=O)[C@H](CCCNC(=N)N)NC(=O)[C@@H](Cc1ccccc1)NC(=O)[C@H](Cc1c[nH]cn1)NC(=O)[C@H](CCC(=O)O)NC(=O)[C@H](CS)NC(=O)[C@H](CS)NC(C)=O)C(=O)NCC(=O)NCC(N)=O | Mc1r | ligand displacement, radioligand |  |  |  | 4.1 nM |
| Cn1c(C(=O)Nc2nc(-c3ccccc3F)cs2)cc(=O)n(C)c1=O | VKORC1 | carboxylation, inhibitor, ELISA | HEK293 stably expressing | 24 h, together with: vitamin K epoxide 5 µM |  | > 100000 nM |
| Cc1nn(-c2cccc(N)c2)c(=O)c2cnc(Nc3ccc(N4CCNCC4)cc3)nc12 | MAPKAPK5 (Homo sapiens, UniProt Q8IW41) | enzyme activity, inhibitor |  |  |  | > 10000 nM |
| CNC(=O)Cc1cccc(CNC(=O)CN2CN(c3ccccc3)C3(CCN(C(=O)c4ccc5[nH]ncc5c4)CC3)C2=O)c1 | DDR2 | ligand displacement |  |  |  | 5300 nM |
| CC(C)C[C@@H]1NC(=O)[C@H](C(C)C)NC(=O)[C@H](Cc2c[nH]c3ccccc23)NC(=O)[C@@H]2CSSC[C@H](NC(=O)[C@H](Cc3ccc(O)cc3)NC(=O)[C@H](C(C)C)NC(=O)[C@H](CCCNC(=N)N)NC(=O)CNC(=O)[C@H]3CCCN3C1=O)C(=O)N[C@@H](CCC(N)=O)C(=O)N1CCC[C@H]1C(=O)NCC(=O)N[C@@H](Cc1c[nH]c3ccccc13)C(=O)N2 | Inducible T-cell costimulator, with ICOS ligand (Homo sapiens, UniProt Q9Y6W8) | ICOS/ICOS-L binding, inhibitor, competitive ELISA |  |  |  | 17500 ± 1260 nM |
| Cc1nc2c(F)cc(-c3nc(Nc4ccc(NC(=O)CCCC(=O)NO)cc4)ncc3F)cc2n1C(C)C | CDK4 |  |  |  |  | 1.6 nM |
| Cc1cc(O)c2c(c1)C(=O)c1cc(O)c(O)c(O)c1C2=O | MAOA | enzyme activity, inhibitor |  |  |  | 91400 nM |
| O=C(CN1CN(c2ccccc2)C2(CCN(C(=O)c3ccc4[nH]ncc4c3)CC2)C1=O)Nc1ccncc1 | DDR2 | ligand displacement |  |  |  | 54700 nM |

Excerpt of the above:
| Structure (SMILES) | target | test | system | conditions | how to read | IC50 |
| --- | --- | --- | --- | --- | --- | --- |
| Cc1nc2c(F)cc(-c3nc(Nc4ccc(CC(=O)NCCCCCCCC(=O)NO)cc4)ncc3F)cc2n1C(C)C | CDK4 |  |  |  |  | 1.7 nM |
| O=S(=O)(O)c1cc(O)c2ccc(Nc3ccc4c(O)cc(S(=O)(=O)O)cc4c3)cc2c1 | Trex1 (Mus musculus, UniProt Q91XB0) | enzyme activity, inhibitor |  |  |  | 3800 nM |
| Cc1nc2c(F)cc(-c3nc(Nc4ccc(CC(=O)NCCCCCC(=O)NO)cc4)ncc3F)cc2n1C(C)C | CDK4 |  |  |  |  | 1.1 nM |
| CCCC[C@H](NC(=O)[C@@H]1CCCN1C(=O)[C@H](CCCNC(=N)N)NC(=O)[C@H](CS)NC(=O)[C@H](Cc1c[nH]c2ccccc12)NC(=O)[C@H](CCCNC(=N)N)NC(=O)[C@@H](Cc1ccccc1)NC(=O)[C@H](Cc1c[nH]cn1)NC(=O)[C@H](CCC(=O)O)NC(=O)[C@H](CS)NC(=O)[C@H](CS)NC(C)=O)C(=O)NCC(=O)NCC(N)=O | Mc1r | ligand displacement, radioligand |  |  |  | 4.1 nM |
| Cn1c(C(=O)Nc2nc(-c3ccccc3F)cs2)cc(=O)n(C)c1=O | VKORC1 | carboxylation, inhibitor, ELISA | HEK293 stably expressing | 24 h, together with: vitamin K epoxide 5 µM |  | > 100000 nM |
